Assay results gathered from unrelated publications.
Compare with care: the assays were run in different laboratories. Values joined by “and” are separate records of one study, mostly repeats; a detail may differ.
Target: Serine/threonine-protein kinase SIK2 (SIK2, Homo sapiens, UniProt Q9H0K1)

For O=C(Cc1ccc(OCc2ccccc2)cc1)NC1(C(=O)O)CCN(C(=O)c2ccc(-c3cccc(Cl)c3)cc2)CC1, “activity vs control” read 111% (enzyme activity, inhibitor; 10 µM).
Cc1cnc2nc1Nc1cccc(c1)COC/C=C/COCc1cc(ccc1OCCN1CCOCC1)N2 gave a remaining binding of 86% (binding, competition with immobilised ligand; 0.1 µM).
The remaining binding of COc1c(Cl)cccc1Nc1c(-c2ccncc2C#C[C@@]2(C)CCCN2C(=O)/C=C/CN(C)C)[nH]c2c1C(=O)NCC2 is reported as 100% (binding, competition with immobilised ligand; 3 µM).
With Cc1cccc(O[C@H]2CCC[C@@H](C(C)CNCc3ccncc3)C2)c1 (relative stereo) the inhibition was 3% (enzyme activity, inhibitor; 1 µM).
With CC(C)=CC1OC(C)(C)C2C=C3C(=O)C(Cl)=CC(O)C3C3C(O)C4OC4C(=O)C132 (stereo not drawn) the remaining binding was 98% (cell-free assay, competition with immobilised ligand; 10 µM).
CNC1C[S+]2CC[S+]3CC[S+](C1)[Ru-4]321([N]=C=S)[n]2c3ccc(OC)cc3c3c4c(c5cc(F)c[n+]1c5c32)C(=O)NC4=O (stereo not drawn) has a remaining binding of 100% (KinomeScan; 0.1 µM; baseline: untreated).
CNC(=O)C1CCN(c2cc(C)c(F)cc2NC(=O)c2ccc(-c3cc(O)ccc3C)c(C)c2)CC1 gave a remaining binding of 95% (binding, competition with immobilised ligand; 1 µM).
With Nc1ncc(-c2cc(-c3cnn(CC(F)(F)F)c3)ncc2F)nc1C(=O)NC1CNCC(F)C1 (stereo not drawn) the remaining activity was 87.1% (enzyme activity; 1 µM; baseline: DMSO control).
For CN1CC[C@@H](COc2cnc(C#N)cc2-c2ccn3nc(NC(=O)C4CC4)cc3c2)C1, the inhibition was 101% (enzyme activity, inhibitor; 1 µM).
For C=CC(=O)Nc1cccc(-c2cnc3[nH]cc(C(=O)NC(C)(C)C)c3n2)c1, the inhibition was 16% (enzyme activity, inhibitor; 0.1 µM).
COCC12C(=O)NC3C4(C(OC)CC1O)C1CC5(O)C(OC)C(O)C(OC(C)=O)(C1C5OC(=O)c1ccccc1)C3(O)C(OC)C24 (stereo not drawn) has a remaining activity of 104% and 92% (kinase activity, inhibitor, ProQinase kinase profiling; 25 µM; baseline: control).
With COc1cc(Nc2nccc(-c3cnn4nc(OC)ccc34)n2)cc(C(F)(F)F)c1 the remaining binding was 100% (binding, competition with immobilised ligand; 1 µM).
Cc1ccc(C(=O)Nc2ccc(CN3CCN(C)CC3)c(C(F)(F)F)c2)cc1C#Cc1cnc2cccnn12 has an upper asymptote of 13000 (target engagement, NanoBRET; human cells).
With NC(=O)[C@@H](O)C[C@H]1CCc2sc3ncnc(O[C@H]4CC[C@H](N5CCOCC5)CC4)c3c21 the inhibition was 20% (enzyme activity, inhibitor; 10 µM).
C=CC(=O)N1CCCC(n2c(=O)c3ncccc3n(Cc3ccc(Oc4ccccc4)cc3)c2=O)C1 (stereo not drawn) gave a remaining binding of 99% (cell-free assay, competition with immobilised ligand; 1 µM).

A few entries again:
COCC12C(=O)NC3C4(C(OC)CC1O)C1CC5(O)C(OC)C(O)C(OC(C)=O)(C1C5OC(=O)c1ccccc1)C3(O)C(OC)C24 (stereo not drawn) has a remaining activity of 104% and 92% (kinase activity, inhibitor, ProQinase kinase profiling; 25 µM; baseline: control).
With NC(=O)[C@@H](O)C[C@H]1CCc2sc3ncnc(O[C@H]4CC[C@H](N5CCOCC5)CC4)c3c21 the inhibition was 20% (enzyme activity, inhibitor; 10 µM).
